Experimental data pooled from the literature.
Each line is one published result; not all experiments were run side by side. ± gives the spread as reported.
CDC25B: M-phase inducer phosphatase 2 (CDC25B, Homo sapiens, UniProt P30305)
HDAC6: Protein deacetylase HDAC6 (HDAC6, Homo sapiens, UniProt Q9UBN7)
KDM1A: Lysine-specific histone demethylase 1A (KDM1A, Homo sapiens, UniProt O60341)
Ectonucleoside triphosphate diphosphohydrolase 1: Ectonucleoside triphosphate diphosphohydrolase 1 (Homo sapiens, UniProt P49961)
GAA: Lysosomal alpha-glucosidase (GAA, Homo sapiens, UniProt P10253)
nusB with NusE: Transcription antitermination protein NusB, with NusE (nusB, Bacillus subtilis, UniProt P54520)
Si: Sucrase-isomaltase, intestinal (Si, Rattus norvegicus, UniProt P23739)
DRD3: D(3) dopamine receptor (DRD3, Homo sapiens, UniProt P35462)

Compound	target	test	system	conditions	how to read	inhibition
COc1cc(OC2CCN(C)CC2)ccc1Nc1ncc2c(n1)n(C1CCCC1)c(=O)n2C	KIT (Homo sapiens, UniProt P10721)	enzyme activity, inhibitor	–	1 µM	–	> 40%
CCCCSc1nc(N)c2c(F)c(C#N)c(F)c(F)c2n1	CDC25B	enzyme activity, inhibitor, fluorescence	–	20 µg/mL	–	94.3%
O=c1c(/C=N/NC(=S)N/N=C/c2cc(Cl)ccc2O)coc2ccccc12	potato tyrosinase	inhibitor	–	50 µM, 0 to 20 min, with: L-DOPA	relative to: control	< 10%
CCOc1c(C(C)(C)O)sc2cnc(Nc3ccc(N4CCC(N5CC6(COC6)C5)CC4)cc3OC)nc12	CAMK2B (Homo sapiens, UniProt Q13554)	enzyme activity, inhibitor	–	0.1 µM	–	70%
NC(=O)c1ccc(C(=O)NOCc2ccc(Sc3cccc(Cl)c3)c(C(F)(F)F)c2)cc1	HDAC6	cell-free assay, inhibitor	–	100 µM	–	16.8%
COCCSc1nc(N)c2c(F)c(C#N)c(F)c(F)c2n1	CDC25B	enzyme activity, inhibitor, fluorescence	–	20 µg/mL	–	96.6%
CC(C)=CCC/C(C)=C/CC/C(C)=C/CC/C(C)=C\CC1=C(C)C(=O)c2ccccc2C1=O	IRAK1 (Homo sapiens, UniProt P51617)	enzyme activity, inhibitor	–	10 µM	–	18%
Cc1ccc(Nc2nc(SCc3cn(CC(=O)NC(=O)Nc4ccccn4)nn3)nc(-c3ccccc3)c2C#N)cc1	KDM1A	enzyme activity, inhibitor, fluorescence	–	1 µM	–	100%
O=C(Nc1ccc(Cl)cc1)c1cccc(S(=O)(=O)Nc2ccc(Cl)cc2)c1	Ectonucleoside triphosphate diphosphohydrolase 1	enzyme activity, inhibitor, absorbance	–	100 µM	–	9%
COCCOC(=O)Nc1ccc2c(c1)c(Cc1ccc(C(=O)NS(=O)(=O)c3ccc(C(F)(F)F)cc3)cc1OC)cn2C	Tumor necrosis factor receptor superfamily member 1A (Homo sapiens, UniProt P19438)	NF-κB reporter gene, luciferase reporter	HEK293 cells	0.5 µM, 24 h, with: TNF 10 ng/mL	–	32 to 40%
CC1CC(=O)c2c(OCC(=O)N3CCC(C(=O)Nc4ccccc4)CC3)ccc(Cl)c21 (centres unmarked)	Trypanothione synthetase (Trypanosoma cruzi, UniProt Q9GT49)	enzyme activity, inhibitor, absorbance	–	25 µM	–	8.8%
O=[N+]([O-])c1ccc(Cn2cc(Cn3cc(CO)nn3)nn2)cc1	1-phosphatidylinositol 4,5-bisphosphate phosphodiesterase delta-1, PH domain (Plcd1, Rattus norvegicus, UniProt P10688)	PI(4,5)P2 binding, competitive SPR	–	5 µM, pH 7.4, PH domain 500 nM	–	72 ± 3%
O=C(/C=C/c1ccccc1)NCc1cn([C@H]2O[C@H](CO)[C@@H](O)[C@H](O)[C@H]2O)nn1	GAA	enzyme activity, inhibitor, fluorescence	–	1.43 mM, pH 4, lysate	–	56%
N#Cc1c(F)c(Cl)c2nc(SCC3CCCO3)nc(N)c2c1F (centres unmarked)	CDC25B	enzyme activity, inhibitor, fluorescence	–	20 µg/mL	–	78.2%
CCNC(=O)Nc1ccc(OCc2ccccc2COc2ccc(NC(=O)NCC)cc2)cc1	nusB with NusE	protein-protein interaction, inhibitor, competitive ELISA	–	25 µM, 15 min preincubation, 37 °C, with: 200 nM GST-NusE	–	65%
CC(=O)c1cnc(N)nc1N1CC[C@H]1c1nn2ccc(Cl)c2c(=O)n1-c1ccccc1	Potassium voltage-gated channel subfamily KQT member 1, with KCNE1 (KCNQ1, Homo sapiens, UniProt P51787)	ion current, inhibitor	–	3 µM	–	< 10%
COc1ccc([C@@]23Oc4cc(OC)cc(OC)c4[C@]2(O)[C@@H]2OC(=O)[C@@H]2C3c2ccccc2)cc1 (mixture of isomers)	Palmitoyl-protein thioesterase ABHD10, mitochondrial (Homo sapiens, UniProt Q9NUJ1)	enzyme activity in cells, inhibitor	PC-3	0.1 µM	–	> 90%
N#CCSc1nc(N)c2c(F)c(C#N)c(F)c(F)c2n1	CDC25B	enzyme activity, inhibitor, fluorescence	–	20 µg/mL	–	80.4%
C[C@@H](N)C1CCN(S(=O)(=O)c2cccc3cnccc23)CC1	CLK1 (Homo sapiens, UniProt P49759)	cell-free assay, competition with immobilised ligand	–	10 µM	–	> 95%
COc1ccc([C@H]2Cc3c(cccc3C(F)(F)F)N(CC[N+](C)(C)C)C(=O)[C@H]2C)cc1	CACNA1C (Oryctolagus cuniculus, UniProt P15381)	barium current, blocker, whole-cell patch clamp	transfected tsA201	300 µM, extracellular tonic block	–	43 ± 3%
COc1cc(C(=O)NC2CCC(N3CCN(CC4CCC5(CCCC5)C4)CC3)CC2)c(F)cc1Nc1ncc2c(n1)N(C1CCCC1(F)F)CC(F)(F)C(=O)N2C (centres unmarked)	FES (Homo sapiens, UniProt P07332)	cell-free assay, TR-FRET	–	10 µM	–	4.79%
Oc1ccc([C@H]2Oc3cc(O)cc(O)c3C[C@H]2O)cc1	Si	enzyme activity, inhibitor	rat intestinal brush border vesicles	10 µM	–	31.5%
CCn1c2ccccc2c2cc(CNCCCn3ccnn3)ccc21	DRD3	cell-free assay, inhibitor	–	10 µM	–	95.8%
O=c1c(F)cn(Cc2cn([C@H]3O[C@H](CO)[C@@H](O)[C@H](O)[C@H]3O)nn2)c(=O)n1Cc1cn([C@H]2O[C@H](CO)[C@@H](O)[C@H](O)[C@H]2O)nn1	GAA	enzyme activity, inhibitor, fluorescence	–	1.43 mM, pH 4, lysate	–	18%

Compound	target	test	system	conditions	how to read	inhibition
OCCNc1cc(Sc2nnnn2-c2ccccc2)nc(SCc2cn(Cc3ccccc3)nn2)n1	KDM1A	enzyme activity, inhibitor, fluorescence	–	10 µM	–	36.3%
C=CCSc1nc(N)c2c(F)c(C#N)c(F)c(F)c2n1	CDC25B	enzyme activity, inhibitor, fluorescence	–	20 µg/mL	–	99.6%
CCOc1cccc(C(=O)Nc2ccc(-c3nc4ccccc4[nH]3)cc2)c1	Heat shock protein 90, N-terminal domain (Plasmodium falciparum, UniProt Q8IC05)	ligand displacement, FP	–	10 µM	–	25%
CCNC(=O)Nc1ccc(OCCCCOc2ccc(NC(=O)NCC)cc2)cc1	nusB with NusE	protein-protein interaction, inhibitor, competitive ELISA	–	25 µM, 15 min preincubation, 37 °C, with: 200 nM GST-NusE	–	52%
OC[C@H]1O[C@@H](Sc2ccccc2)[C@H](O)[C@@H](O)[C@@H]1O	SLC5A2 (Homo sapiens, UniProt P31639)	transporter uptake, inhibitor, radiometric	CHO	10 µM	–	66.7%
CCn1c2ccccc2c2cc(CN[C@H]3CC[C@H](NC(=O)c4cc5ccccc5[nH]4)CC3)ccc21	DRD3	cell-free assay, inhibitor	–	10 µM	–	88.9%
O=C(c1cccc(S(=O)(=O)N2CCOCC2)c1)N1CCOCC1	Ectonucleoside triphosphate diphosphohydrolase 1	enzyme activity, inhibitor, absorbance	–	100 µM	–	19%
CCCCCCCCSc1nc(N)c2c(F)c(C#N)c(F)c(F)c2n1	CDC25B	enzyme activity, inhibitor, fluorescence	–	20 µg/mL	–	99.7%
Nc1ncc(/C=N/NC(=O)Cc2c[nH]c3ccccc23)cn1	dxs (Deinococcus radiodurans, UniProt Q9RUB5)	enzyme activity, inhibitor	–	120 µM	–	14%
Oc1cc(O)c2c(c1)O[C@H](c1cc(O)c(O)c(O)c1)[C@@H](O)C2 (racemic)	Si	enzyme activity, inhibitor	rat intestinal brush border vesicles	10 µM	–	93.8%
N[C@H]1CCCc2c1[nH]c1ccc(Cl)cc21	HTR1A (Homo sapiens, UniProt P08908)	ligand displacement, radioligand	–	10 µM	–	13.2%
O=C1N[C@@H](CO)C[C@@H](O)c2ccccc21 (relative stereo)	PARP3 (Homo sapiens, UniProt Q9Y6F1)	enzyme activity, inhibitor	–	10 µM	–	51%
N#Cc1c(F)c(F)c2nc(SCc3ccc4ccccc4c3)nc(N)c2c1F	CDC25B	enzyme activity, inhibitor, fluorescence	–	20 µg/mL	–	99.4%
CCC(NC(=O)C(CC(C)C)NC(=O)NCc1ccccc1)C(=O)C(=O)NCc1cc(OC)cc(OC)c1 (centres unmarked)	Calpain-1 catalytic subunit (Capn1, Mus musculus, UniProt O35350)	brain enzyme activity	mouse, controlled cortical impact TBI, brain	intraperitoneal, 10 mg/kg, 24 h after TBI	–	~40%
CCCCCCCCSc1nc(N)c2c(F)c(C#N)c(F)c(Cl)c2n1	CDC25B	enzyme activity, inhibitor, fluorescence	–	20 µg/mL	–	97.3%
C[Si](C)(C)C[C@@H](CN)CC(=O)O	Voltage-dependent calcium channel subunit alpha-2/delta-1 (Rattus norvegicus, UniProt P54290)	[3H]gabapentin binding	rat cerebral cortex membranes	75 µM	–	78%
O=C(O[C@H]1Cc2c(O)cc(O)cc2O[C@@H]1c1ccc(O)c(O)c1)c1cc(O)c(O)c(O)c1	Si	enzyme activity, inhibitor	rat intestinal brush border vesicles	10 µM	–	79.2%
O=C(Nc1ccc(Oc2ncnc3[nH]cc(-c4ccccc4)c23)c(F)c1)c1c2n(n(-c3cc(F)ccc3F)c1=O)CCCC2	AXL (Homo sapiens, UniProt P30530)	enzyme activity, inhibitor, ELISA	–	0.1 µM	–	75.4%
COc1cc(OC)c2c(=O)[nH]c(-c3ccc(C4CCCNC4)cc3)nc2c1 (centres unmarked)	PARP1 (Homo sapiens, UniProt P09874)	enzyme activity, inhibitor, ELISA	–	10 µM	–	30%
Cc1ccc(Nc2nc(SCc3cn(Cc4ccccc4Cl)nn3)nc(-c3ccc(Br)cc3)c2C#N)cc1	KDM1A	enzyme activity, inhibitor, fluorescence	–	1 µM	–	8.4%
COc1ccc(NS(=O)(=O)c2cccc(/C=C/C(=O)NO)c2)cc1	HDAC6	enzyme activity, inhibitor, fluorescence	–	5 µM	–	100%
O=C(Nc1ccc(Cl)cc1)c1cccc(S(=O)(=O)NC2CC2)c1	Ectonucleoside triphosphate diphosphohydrolase 1	enzyme activity, inhibitor, absorbance	–	100 µM	–	5%
Cc1c(Br)cnc2c1NC(=O)c1cccnc1N2C1CC1	Gag-Pol polyprotein, reverse transcriptase (gag-pol, Human immunodeficiency virus type 1 group M subtype B, UniProt P04585)	enzyme activity, inhibitor, ELISA	–	10 µM	–	> 85%

Repeated from above:
Compound	target	test	system	conditions	how to read	inhibition
O=C(c1cccc(S(=O)(=O)N2CCOCC2)c1)N1CCOCC1	Ectonucleoside triphosphate diphosphohydrolase 1	enzyme activity, inhibitor, absorbance	–	100 µM	–	19%
CCCCCCCCSc1nc(N)c2c(F)c(C#N)c(F)c(F)c2n1	CDC25B	enzyme activity, inhibitor, fluorescence	–	20 µg/mL	–	99.7%
Nc1ncc(/C=N/NC(=O)Cc2c[nH]c3ccccc23)cn1	dxs (Deinococcus radiodurans, UniProt Q9RUB5)	enzyme activity, inhibitor	–	120 µM	–	14%
Oc1cc(O)c2c(c1)O[C@H](c1cc(O)c(O)c(O)c1)[C@@H](O)C2 (racemic)	Si	enzyme activity, inhibitor	rat intestinal brush border vesicles	10 µM	–	93.8%
N[C@H]1CCCc2c1[nH]c1ccc(Cl)cc21	HTR1A (Homo sapiens, UniProt P08908)	ligand displacement, radioligand	–	10 µM	–	13.2%
O=C1N[C@@H](CO)C[C@@H](O)c2ccccc21 (relative stereo)	PARP3 (Homo sapiens, UniProt Q9Y6F1)	enzyme activity, inhibitor	–	10 µM	–	51%
N#Cc1c(F)c(F)c2nc(SCc3ccc4ccccc4c3)nc(N)c2c1F	CDC25B	enzyme activity, inhibitor, fluorescence	–	20 µg/mL	–	99.4%
